# Measured values pooled from the literature.
# Lines come from different studies, so protocols differ. ± gives the spread as reported.
# AKR1C2: Aldo-keto reductase family 1 member C2 (AKR1C2, Homo sapiens, UniProt P52895)
# Chain of UniProt P52895 (whole entry, looked up): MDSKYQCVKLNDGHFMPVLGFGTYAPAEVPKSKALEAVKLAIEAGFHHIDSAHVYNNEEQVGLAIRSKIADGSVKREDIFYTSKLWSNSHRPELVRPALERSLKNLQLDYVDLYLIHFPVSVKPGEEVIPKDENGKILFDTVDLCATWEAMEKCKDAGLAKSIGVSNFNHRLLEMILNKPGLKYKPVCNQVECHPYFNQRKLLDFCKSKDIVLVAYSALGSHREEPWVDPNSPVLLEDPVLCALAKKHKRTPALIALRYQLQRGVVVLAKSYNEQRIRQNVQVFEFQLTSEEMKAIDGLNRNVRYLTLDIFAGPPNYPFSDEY
# Ectonucleoside triphosphate diphosphohydrolase 8: Ectonucleoside triphosphate diphosphohydrolase 8 (Homo sapiens, UniProt Q5MY95)
# Chain of UniProt Q5MY95 (whole entry, looked up): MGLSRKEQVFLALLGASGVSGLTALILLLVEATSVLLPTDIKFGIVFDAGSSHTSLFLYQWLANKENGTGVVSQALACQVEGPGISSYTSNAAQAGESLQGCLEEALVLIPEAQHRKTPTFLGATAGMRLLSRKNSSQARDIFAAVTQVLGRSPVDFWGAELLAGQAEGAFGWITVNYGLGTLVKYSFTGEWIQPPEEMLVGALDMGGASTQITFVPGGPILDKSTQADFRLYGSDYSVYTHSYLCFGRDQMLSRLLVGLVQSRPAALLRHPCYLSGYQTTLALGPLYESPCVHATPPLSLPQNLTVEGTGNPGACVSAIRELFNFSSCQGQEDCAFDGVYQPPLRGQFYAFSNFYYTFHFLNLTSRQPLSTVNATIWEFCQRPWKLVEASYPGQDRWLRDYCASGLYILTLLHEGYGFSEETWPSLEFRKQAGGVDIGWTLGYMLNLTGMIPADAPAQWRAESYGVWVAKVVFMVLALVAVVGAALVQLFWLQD
# Sigmar1: Sigma non-opioid intracellular receptor 1 (Sigmar1, Rattus norvegicus, UniProt Q9R0C9)
# Chain of UniProt Q9R0C9 (whole entry, looked up): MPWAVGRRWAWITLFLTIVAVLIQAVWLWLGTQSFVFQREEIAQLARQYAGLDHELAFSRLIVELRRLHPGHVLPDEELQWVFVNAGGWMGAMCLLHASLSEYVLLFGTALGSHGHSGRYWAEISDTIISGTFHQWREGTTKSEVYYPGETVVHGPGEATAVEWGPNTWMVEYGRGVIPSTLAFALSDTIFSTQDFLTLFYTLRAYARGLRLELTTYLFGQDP
# PDK1: [Pyruvate dehydrogenase (acetyl-transferring)] kinase isozyme 1, mitochondrial (PDK1, Homo sapiens, UniProt Q15118)
# Chain of UniProt Q15118 (whole entry, looked up): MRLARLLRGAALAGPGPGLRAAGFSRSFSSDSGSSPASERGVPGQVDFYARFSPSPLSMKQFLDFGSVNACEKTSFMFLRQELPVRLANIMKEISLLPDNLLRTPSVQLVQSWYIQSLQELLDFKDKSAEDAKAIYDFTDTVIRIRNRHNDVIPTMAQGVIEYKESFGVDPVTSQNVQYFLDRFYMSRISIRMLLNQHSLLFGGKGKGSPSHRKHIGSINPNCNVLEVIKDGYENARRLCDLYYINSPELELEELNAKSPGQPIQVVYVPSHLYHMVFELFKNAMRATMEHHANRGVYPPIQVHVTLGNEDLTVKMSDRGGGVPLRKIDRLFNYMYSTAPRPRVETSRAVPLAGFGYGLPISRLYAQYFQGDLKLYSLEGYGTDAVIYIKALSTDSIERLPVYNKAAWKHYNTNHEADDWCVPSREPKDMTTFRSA
# hdac10: Polyamine deacetylase HDAC10 (hdac10, Danio rerio, UniProt F1QCV2)
# Chain of UniProt F1QCV2 (whole entry, looked up): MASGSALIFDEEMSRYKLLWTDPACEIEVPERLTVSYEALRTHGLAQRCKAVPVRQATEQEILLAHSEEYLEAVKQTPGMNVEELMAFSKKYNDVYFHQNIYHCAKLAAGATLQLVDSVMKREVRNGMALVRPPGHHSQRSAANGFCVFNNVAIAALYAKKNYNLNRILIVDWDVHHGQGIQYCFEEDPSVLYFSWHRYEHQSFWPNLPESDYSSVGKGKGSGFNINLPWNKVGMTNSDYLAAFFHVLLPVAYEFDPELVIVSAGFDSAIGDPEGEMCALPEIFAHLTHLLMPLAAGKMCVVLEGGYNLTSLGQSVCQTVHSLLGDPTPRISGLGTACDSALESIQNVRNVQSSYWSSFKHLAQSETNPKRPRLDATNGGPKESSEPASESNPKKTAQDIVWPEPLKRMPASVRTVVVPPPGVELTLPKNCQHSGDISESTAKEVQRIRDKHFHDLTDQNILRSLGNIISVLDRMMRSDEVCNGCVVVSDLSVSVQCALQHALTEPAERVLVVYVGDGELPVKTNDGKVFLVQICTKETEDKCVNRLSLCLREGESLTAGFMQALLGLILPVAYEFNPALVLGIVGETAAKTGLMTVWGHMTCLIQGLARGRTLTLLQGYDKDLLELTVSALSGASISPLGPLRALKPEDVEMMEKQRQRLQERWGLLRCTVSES
# AMY2: Pancreatic alpha-amylase (AMY2, Sus scrofa, UniProt P00690)
# Chain of UniProt P00690 (whole entry, looked up): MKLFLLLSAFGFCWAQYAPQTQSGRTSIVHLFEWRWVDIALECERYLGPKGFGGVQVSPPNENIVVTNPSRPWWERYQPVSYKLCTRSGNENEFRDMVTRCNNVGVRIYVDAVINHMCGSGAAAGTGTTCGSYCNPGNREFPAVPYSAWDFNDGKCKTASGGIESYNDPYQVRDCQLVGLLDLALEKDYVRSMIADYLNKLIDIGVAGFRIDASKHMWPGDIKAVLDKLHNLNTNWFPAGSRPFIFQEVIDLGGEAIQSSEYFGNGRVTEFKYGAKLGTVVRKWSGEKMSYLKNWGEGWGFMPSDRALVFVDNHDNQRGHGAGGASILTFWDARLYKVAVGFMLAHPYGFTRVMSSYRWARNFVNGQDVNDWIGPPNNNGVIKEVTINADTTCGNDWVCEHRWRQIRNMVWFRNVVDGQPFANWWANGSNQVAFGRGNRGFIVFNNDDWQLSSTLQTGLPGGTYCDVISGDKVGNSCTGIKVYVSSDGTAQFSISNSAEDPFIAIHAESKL
# ELANE: Neutrophil elastase (ELANE, Homo sapiens, UniProt P08246)
# Chain of UniProt P08246 (whole entry, looked up): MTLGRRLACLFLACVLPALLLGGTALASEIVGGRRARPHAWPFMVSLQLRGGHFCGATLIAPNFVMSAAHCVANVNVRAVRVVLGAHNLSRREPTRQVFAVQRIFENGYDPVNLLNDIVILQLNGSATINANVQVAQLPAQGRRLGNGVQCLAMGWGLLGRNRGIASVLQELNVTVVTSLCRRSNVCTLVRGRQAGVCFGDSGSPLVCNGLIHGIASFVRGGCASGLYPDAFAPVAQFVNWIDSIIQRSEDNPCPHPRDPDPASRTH
# CDK4 with cyclin D3: Cyclin-dependent kinase 4, with cyclin D3 (CDK4, Homo sapiens, UniProt P11802)
# Chain of UniProt P11802 (whole entry, looked up): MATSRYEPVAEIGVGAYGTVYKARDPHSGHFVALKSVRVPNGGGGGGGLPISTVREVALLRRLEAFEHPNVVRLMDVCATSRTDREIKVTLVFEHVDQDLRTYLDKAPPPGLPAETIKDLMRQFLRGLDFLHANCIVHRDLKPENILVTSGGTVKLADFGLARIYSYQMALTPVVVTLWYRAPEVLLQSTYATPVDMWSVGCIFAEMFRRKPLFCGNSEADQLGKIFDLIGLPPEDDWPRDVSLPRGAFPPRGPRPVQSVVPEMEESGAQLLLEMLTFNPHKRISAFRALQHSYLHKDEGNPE
# PTPN1: Tyrosine-protein phosphatase non-receptor type 1 (PTPN1, Homo sapiens, UniProt P18031)
# Chain of UniProt P18031 (whole entry, looked up): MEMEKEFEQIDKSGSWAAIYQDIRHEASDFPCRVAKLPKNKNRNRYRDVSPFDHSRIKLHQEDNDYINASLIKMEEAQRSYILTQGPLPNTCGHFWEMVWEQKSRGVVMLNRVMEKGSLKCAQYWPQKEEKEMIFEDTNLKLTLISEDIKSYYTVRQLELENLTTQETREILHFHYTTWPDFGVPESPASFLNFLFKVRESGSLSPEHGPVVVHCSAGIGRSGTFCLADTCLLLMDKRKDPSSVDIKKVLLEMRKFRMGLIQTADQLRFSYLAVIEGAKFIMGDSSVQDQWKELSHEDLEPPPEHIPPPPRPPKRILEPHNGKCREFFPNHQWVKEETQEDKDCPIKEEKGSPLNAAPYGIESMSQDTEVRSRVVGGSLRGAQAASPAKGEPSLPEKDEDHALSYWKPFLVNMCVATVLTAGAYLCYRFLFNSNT
# Chain of UniProt O60285 (whole entry, looked up): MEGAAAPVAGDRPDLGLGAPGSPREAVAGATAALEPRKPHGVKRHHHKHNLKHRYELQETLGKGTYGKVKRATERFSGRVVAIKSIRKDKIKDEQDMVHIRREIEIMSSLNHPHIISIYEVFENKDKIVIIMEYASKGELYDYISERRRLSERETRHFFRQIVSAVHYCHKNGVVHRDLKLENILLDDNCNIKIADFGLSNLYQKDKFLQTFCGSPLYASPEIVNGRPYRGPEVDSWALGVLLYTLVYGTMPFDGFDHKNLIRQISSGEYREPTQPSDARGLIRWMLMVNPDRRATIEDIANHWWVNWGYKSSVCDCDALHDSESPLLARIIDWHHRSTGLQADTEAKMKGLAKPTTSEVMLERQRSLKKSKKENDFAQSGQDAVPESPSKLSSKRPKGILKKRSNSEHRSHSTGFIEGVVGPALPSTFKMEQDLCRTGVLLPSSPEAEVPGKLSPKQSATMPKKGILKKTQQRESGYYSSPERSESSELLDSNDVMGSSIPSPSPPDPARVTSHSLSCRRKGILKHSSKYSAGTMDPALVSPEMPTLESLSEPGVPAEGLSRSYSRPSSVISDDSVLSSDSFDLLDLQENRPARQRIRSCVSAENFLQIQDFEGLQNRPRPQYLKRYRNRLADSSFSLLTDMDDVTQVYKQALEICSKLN
# Chain of UniProt P46098 (whole entry, looked up): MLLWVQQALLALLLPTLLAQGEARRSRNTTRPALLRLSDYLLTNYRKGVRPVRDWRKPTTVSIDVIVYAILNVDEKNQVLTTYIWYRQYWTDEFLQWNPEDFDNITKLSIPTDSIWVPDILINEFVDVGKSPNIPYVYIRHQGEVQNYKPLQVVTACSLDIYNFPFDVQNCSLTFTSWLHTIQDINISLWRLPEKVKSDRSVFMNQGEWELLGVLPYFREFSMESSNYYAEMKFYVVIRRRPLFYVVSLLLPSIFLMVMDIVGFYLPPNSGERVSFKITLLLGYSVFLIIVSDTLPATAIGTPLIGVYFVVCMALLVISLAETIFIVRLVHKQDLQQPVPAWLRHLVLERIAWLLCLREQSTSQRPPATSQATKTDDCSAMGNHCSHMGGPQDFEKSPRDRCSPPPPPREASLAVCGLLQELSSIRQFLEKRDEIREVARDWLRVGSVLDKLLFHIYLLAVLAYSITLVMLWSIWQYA
Compound,target,assay,test system,conditions,inhibition
O=C(O)c1ccc2cccnc2c1O,"1-deoxy-D-xylulose 5-phosphate reductoisomerase (Escherichia coli K-12, UniProt P45568)","enzyme activity, inhibitor, absorbance",,100 µM,100%
CC(C)Cc1ccc(S(=O)(=O)N2CCN(Cc3noc(CCC(=O)NC4CCCCC4)n3)CC2)cc1,"SCN9A (Homo sapiens, UniProt Q15858)","sodium current, whole-cell patch clamp","HEK293, stable",20 µM,28 ± 5%
C[C@]12CCC[C@H]1[C@@H]1CCc3c(cc(Cl)c(O)c3Cl)[C@H]1CC2,AKR1C2,"enzyme activity, inhibitor, absorbance",,"10 µM, pH 9",66.2%
Cc1ccc(NC(=O)c2cccc(S(=O)(=O)N3CCOCC3)c2)c(C)c1,Ectonucleoside triphosphate diphosphohydrolase 8,"enzyme activity, inhibitor, absorbance",,100 µM,39%
C/C(=N\OCCN1CCOCC1)c1ccccc1C(F)(F)F,Sigmar1,radioligand binding,,10 µM,94.8%
O=C(c1ccc(Oc2ccc(Cl)cc2)c([N+](=O)[O-])c1)C(Cl)Cl,PDK1,"enzyme activity, inhibitor, ATP luminescence",,2 µM,53.1%
COc1ccc(C(=O)NO)cc1OCc1ccccc1,hdac10,,,1 µM,< 10%
C/C(=N\OCCCCN1CCCCC1)c1ccc(C(F)(F)F)cc1,Sigmar1,radioligand binding,,1 µM,72.9%
O=C(NC1CCCC1)c1cccc(S(=O)(=O)NC2CCCC2)c1,"Ectonucleoside triphosphate diphosphohydrolase 3 (Homo sapiens, UniProt O75355)","enzyme activity, inhibitor, absorbance",,100 µM,9%
C=CC(=O)Nc1cccc(-c2cnc3[nH]cc(C(=O)NC(C)(C)C)c3n2)c1,"NUAK1 (Homo sapiens, UniProt O60285)","enzyme activity, inhibitor",,0.1 µM,> 90%
COCCNc1nc(C(=O)NCc2ccc(F)cc2)c(O)c2ncccc12,"Tripartite terminase subunit 3, C-terminal nuclease domain (Human betaherpesvirus 5, UniProt P16732)","endonuclease activity, ELISA",,10 µM,25 ± 6.5%
COc1ccc2c(c1)CC[C@@H]1[C@@H]2CC[C@@]2(C)CCC[C@@H]12,AKR1C2,"enzyme activity, inhibitor, absorbance",,"100 µM, pH 9",75%
OCc1c(Cl)ccc(Oc2ccc(Cl)cc2Cl)c1O,"ENR (Toxoplasma gondii, UniProt Q6UCJ9)","enzyme activity, inhibitor",,1 µM,92%
C[C@]12CC[C@@H]3c4cc(I)c(O)cc4CC[C@H]3[C@@H]1CCC2=O,AKR1C2,"enzyme activity, inhibitor, absorbance",,"100 µM, pH 9",52.5%
COc1cc(C(=O)O[C@@H]2Cc3c(O)cc(O)cc3O[C@@H]2c2ccc(O)c(O)c2)cc(O)c1O,"PNLIP (Sus scrofa, UniProt P00591)","enzyme activity, inhibitor",,10 µM,47.5%
C[C@@]12CC[C@@H]3c4ccc(O)c(I)c4CC[C@H]3[C@@H]1CCC2=O,AKR1C2,"enzyme activity, inhibitor, absorbance",,100 µM,75%
N#Cc1c(NC(=O)c2ccc(Cl)cc2)sc2c1CCC(c1ccccc1)C2 (centres unmarked),PDK1,"enzyme activity, inhibitor, ATP luminescence",,100 µg/mL,29%
O=C(NO)C1=CCCC1,hdac10,,,1 µM,93%
CC(C)(O)C1=CCC(C2CC[C@]3(C)C2CCC2[C@@]4(C)CCC(O)C(C)(C)C4CC[C@]23C)C1=O (some centres unmarked),α-glucosidase (yeast),,,"50 µM, added: PNPG substrate",26.7 ± 4.13%
C[C@@]12CC[C@@H]3c4cc(Br)c(O)cc4CC[C@H]3[C@@H]1CCC2=O,AKR1C2,"enzyme activity, inhibitor, absorbance",,"10 µM, pH 9",81.4%
Cc1cccc(NCC(=O)Nc2nc3ccccc3s2)c1,"PIK3CG (Homo sapiens, UniProt P48736)","enzyme activity, inhibitor, ADP detection",,100 µM,48%
CN(C)C(=O)c1ccc(S(=O)(=O)c2ccc(NC(=O)[C@@](C)(O)C(F)(F)F)c(Cl)c2)cc1,PDK1,"enzyme activity, inhibitor, ATP luminescence",,10 µM,4.77%
Cc1cccc(/C=C/C(=O)c2cnn(-c3ccccc3)c2C)c1,AMY2,"enzyme activity, inhibitor, absorbance",,80 µM,18.1%
COc1cc(/C=N\C(=S)NNC(=O)CC2C(=O)c3ccccc3C2=O)cc(OC)c1OC,ELANE,"enzyme activity, inhibitor, fluorescence",,1 µM,17.3%
C/C(=N\OCCN(C)Cc1ccccc1)c1ccccc1C(F)(F)F,Sigmar1,radioligand binding,,10 µM,72.3%
Nc1ccccc1NC(=O)c1ccc(Nc2nccc(-c3cn(C4CCCCC4)nn3)n2)cc1,CDK4 with cyclin D3,"enzyme activity, inhibitor, TR-FRET",,50 nM,6.15%
CCC(=O)N(C)c1ccc(Cl)c(Cl)c1,"CCR1 (Homo sapiens, UniProt P32246)","ligand displacement, radioligand",,10 µM,16.2%
C[C@@]12CC[C@@H]3c4cc(Br)c(O)c(Br)c4CC[C@H]3[C@@H]1CCC2=O,AKR1C2,"enzyme activity, inhibitor, absorbance",,"10 µM, pH 9",70.3%
CC(C)Cn1cc(-c2ccnc(Nc3ccc(C(=O)Nc4ccccc4N)cc3)n2)nn1,CDK4 with cyclin D3,"enzyme activity, inhibitor, TR-FRET",,50 nM,-1.14%
COc1cc(C(=O)NC2CCC(N3CCN(CC4CCC5(CCCC5)C4)CC3)CC2)c(F)cc1Nc1ncc2c(n1)N(C1CCCC1(F)F)CC(F)(F)C(=O)N2C (centres unmarked),"FYN (Homo sapiens, UniProt P06241)","cell-free assay, TR-FRET",,10 µM,0.08%
COc1ccc(-c2nc(CSc3nc(N)c(C#N)c(-c4ccc5c(c4)OCO5)c3C#N)cs2)cc1,"ADORA3 (Homo sapiens, UniProt P0DMS8)","ligand displacement, radioligand",,"1 µM, cell membranes",47%
O=[N+]([O-])c1ccc(-c2cs/c(=N/N=C/c3ccc(N4CCOCC4)cc3)n2C2CCCCC2)cc1,"CA2 (Bos taurus, UniProt P00921)","enzyme activity, inhibitor, absorbance",,500 µM,89.6%
O=C(NO)c1coc(-c2ccc(Br)cc2)n1,hdac10,,,0.1 µM,33%
Cc1cc(-c2nc(-c3cccc(S(N)(=O)=O)c3)no2)ccc1-c1ccncc1,"Programmed cell death 1 ligand 1, with PD-1 (CD274, Homo sapiens, UniProt Q9NZQ7)","PD-1/PD-L1 binding, inhibitor, TR-FRET",,25 µM,≥ 20%
CC(=O)C1CCC2(C)C1C(O)CC1C3(C)CCC(O)C(C)(C)C3CCC12C (centres unmarked),PTPN1,"enzyme activity, inhibitor",,"400 µM, added: p-nitrophenyl phosphate",3.8%
CN(Cc1ccccc1)C(=O)c1cccc(S(=O)(=O)N2CCOCC2)c1,Ectonucleoside triphosphate diphosphohydrolase 8,"enzyme activity, inhibitor, absorbance",,100 µM,38%
CC(C)C[C@H]1CNC(=O)N2C[C@H](C[C@H]2C(N)=O)SCC(=O)NCCNC(=O)CSC[C@H](NC(=O)[C@H](Cc2ccccc2)NC(=O)[C@H](CO)NC(=O)[C@@H](N)[C@@H](C)O)C(=O)N[C@@H](CCC(=O)O)C(=O)N[C@@H](Cc2ccc(O)cc2)C(=O)N[C@@H](Cc2c[nH]c3ccccc23)C(=O)N[C@@H](C)C(=O)N[C@@H](CC(C)C)CNC(=O)N1,"Protein Mdm4, with p53 (MDM4, Homo sapiens, UniProt O15151)","inhibitor, HTRF",,100 nM,43%
COc1ccc2c(c1Cl)CC[C@@H]1[C@@H]2CC[C@@]2(C)C(=O)CC[C@@H]12,AKR1C2,"enzyme activity, inhibitor, absorbance",,"100 µM, pH 9",78.8%
C/C(=N\OCCCCN(C)Cc1ccccc1)c1ccc(C(F)(F)F)cc1,Sigmar1,radioligand binding,,10 µM,76.6%
CC1=C2C(=O)C3CC[C@@H](C)C2(CC1)C3(C)C (some centres unmarked),α-glucosidase (Saccharomyces cerevisiae),inhibitor,,"10 µg/mL, added: pNPG",34.5 ± 1.3%
COC(CO)c1ccc(O)c(O)c1 (centres unmarked),AMY2,"enzyme activity, inhibitor",,500 µM,< 10%
Cc1ccc(C(=O)/C=C/c2ccc3c(c2)OCCO3)s1,"MAOB (Homo sapiens, UniProt P27338)","enzyme activity, inhibitor, fluorescence",,1 µM,69.9%
O=C(NO)c1coc(-c2ccccc2)n1,hdac10,,,0.1 µM,< 10%
N[C@H]1CCCc2c1[nH]c1ccc(Cl)cc21,"HTR3A (Homo sapiens, UniProt P46098)","ligand displacement, radioligand",,10 µM,8.2%
CC(C)(O)CC(=O)CC(C(=O)O)C1CC[C@]2(C)C1CCC1[C@@]3(C)CC[C@H](O)C(C)(C)C3CC[C@]12C (some centres unmarked),PTPN1,"enzyme activity, inhibitor, absorbance",,50 µM,80.2%
Cc1nc2ccccc2n1S(=O)(=O)c1ccc2c(c1)C(=O)CC2=O,ELANE,"enzyme activity, inhibitor, fluorescence",,0.1 µM,24.1%
N=C(N)NC(=O)c1ccc(C(=O)NCCCC[C@H](NC(=O)CNC(=O)CCC(=O)NN=Cc2cc(C=NNC(=O)CCC(=O)NCC(=O)N[C@@H](CCCCNC(=O)c3ccc(C(=O)NC(=N)N)[nH]3)C(=O)N[C@@H](Cc3c[nH]c4ccccc34)C(=O)N[C@@H](CCCCN)C(N)=O)cc(C=NNC(=O)CCC(=O)NCC(=O)N[C@@H](CCCCNC(=O)c3ccc(C(=O)NC(=N)N)[nH]3)C(=O)N[C@@H](Cc3c[nH]c4ccccc34)C(=O)N[C@@H](CCCCN)C(N)=O)c2)C(=O)N[C@@H](Cc2c[nH]c3ccccc23)C(=O)N[C@@H](CCCCN)C(N)=O)[nH]1,"Tryptase beta-2 (TPSB2, Homo sapiens, UniProt P20231)","share from high-affinity mode, inhibitor",,concentration not given,25 to 30%
O=C(NO)c1coc(-c2cccs2)n1,hdac10,,,0.1 µM,< 10%
C/C(=N\OCCCN1CCCCC1)c1cccc(C(F)(F)F)c1,Sigmar1,radioligand binding,,10 µM,97.3%
O=C(NO)c1cc2c(Cl)cccc2s1,hdac10,,,0.1 µM,11%
COc1cccc(Nc2ncnc3[nH]c4cc(Br)ccc4c23)c1,"PTK6 (Homo sapiens, UniProt Q13882)","enzyme activity, inhibitor, ADP detection",,2 µM,26.5%
COC(=O)C(Cc1ccccn1)NC(=O)CCCCCCC(=O)NO (centres unmarked),hdac10,,,1 µM,64%
FC(F)(F)c1ccc(NC(=S)Nc2ccc3[nH]cnc3c2)cc1,"Beta-glucuronidase (uidA, Escherichia coli, UniProt P05804)","enzyme activity, inhibitor, absorbance",,100 µM,94.3%

# Repeated from above:
Compound,target,assay,test system,conditions,inhibition
O=C(NO)C1=CCCC1,hdac10,,,1 µM,93%
C=CC(=O)Nc1cccc(-c2cnc3[nH]cc(C(=O)NC(C)(C)C)c3n2)c1,"NUAK1 (Homo sapiens, UniProt O60285)","enzyme activity, inhibitor",,0.1 µM,> 90%
COC(=O)C(Cc1ccccn1)NC(=O)CCCCCCC(=O)NO (centres unmarked),hdac10,,,1 µM,64%
O=C(NO)c1cc2c(Cl)cccc2s1,hdac10,,,0.1 µM,11%
